Experimental data pooled from the literature.
Lines come from different studies, so protocols differ. Numbers after ± are the reported error.
Melanocortin receptor 4: Melanocortin receptor 4 (Mus musculus, UniProt P56450)
Accessory gene regulator protein C: Accessory gene regulator protein C (Staphylococcus epidermidis, UniProt Q8VSX2)
DRD3: D(3) dopamine receptor (DRD3, Homo sapiens, UniProt P35462)
histidine kinase ComD: histidine kinase ComD (Streptococcus pneumoniae serotype 4, UniProt A0A0H2US84)
GLP1R: Glucagon-like peptide 1 receptor (GLP1R, Homo sapiens, UniProt P43220)

`CC(=O)N[C@@H](CCCNC(=N)N)C(=O)N[C@@H](CCCNC(=N)N)C(=O)N[C@H](Cc1ccc(I)cc1)C(=O)N[C@@H](C(N)=O)[C@H](c1ccccc1)c1c[nH]c2ccccc12` gave an EC50 of over 100000 nM (Melanocortin receptor 4; cAMP, agonist, AlphaScreen).
`C#CCC[C@H](NC(=O)[C@H](Cc1c[nH]c2ccccc12)NC(=O)[C@H](CCCNC(=N)N)NC(=O)[C@@H](Cc1ccccc1)NC(=O)[C@H](Cc1c[nH]cn1)NC(=O)[C@H](CCN=[N+]=[N-])NC(=O)[C@H](CCCC)NC(C)=O)C(N)=O` has an EC50 of about 0.05 nM (Melanocortin receptor 4; reporter gene, agonist).
For `CC[C@H](C)[C@H](NC(=O)[C@H](CC(N)=O)NC(=O)[C@@H](NC(=O)[C@H](Cc1ccccc1)NC(=O)[C@H](Cc1ccccc1)NC(=O)[C@H](CCSC)NC=O)[C@@H](C)CC)C(=O)N[C@@H](CC(C)C)C(=O)N[C@H](C(=O)N[C@@H](CC(C)C)C(=O)O)[C@@H](C)O`, the EC50 was 0.6 nM (fMet-Leu-Phe receptor (Mus musculus, UniProt P33766); calcium mobilisation, agonist, FLIPR Fluo-4; HEK-293T with Gα16).
`CC(C)C[C@@H]1NC(=O)[C@H](Cc2ccc(O)cc2)NC(=O)[C@H](CC(N)=O)NC(=O)[C@H](CO)NC(=O)[C@@H](NC(=O)[C@@H]2CCCN2C(=O)[C@H](CC(N)=O)NC(=O)[C@H](Cc2ccc(O)cc2)NC(=O)[C@@H](N)CCCCN)CSC1=O` gave an EC50 of over 2000 nM (Accessory gene regulator protein C).
With `CCN(Cc1ccccc1)C(=O)CCc1nc(CN2CCN(C(=O)Cc3ccc(OC)c(OC)c3)CC2)no1` the EC50 was 190 ± 20 nM (KCNQ4 (Homo sapiens, UniProt P56696); ion current, opener, whole-cell patch clamp; CHO stably expressing channel).
`CC[C@H](C)[C@@H]1NC(=O)[C@H](Cc2ccccc2)NC(=O)[C@@](C)(NC(=O)[C@H](CCCNC(=N)N)NC(=O)CNC(=O)[C@H](CO)NC(=O)[C@H](CC(C)C)NC(=O)[C@@H](N)CCCNC(=N)N)CCCC=CCCC[C@@](C)(C(=O)N[C@H](C(=O)N[C@H](C(=O)N[C@@H](Cc2ccccc2)C(=O)N[C@H](C(=O)N[C@@H](CO)C(=O)NCC(=O)NCC(=O)N[C@@H](CO)C(=O)N[C@@H](CCCNC(=N)N)C(=O)N[C@@H](Cc2c[nH]c3ccccc23)C(=O)O)[C@@H](C)O)[C@@H](C)CC)C(C)C)NC(=O)[C@H](CCCNC(=N)N)NC1=O` gave an EC50 of 5.75 nM (RXFP3 (Homo sapiens, UniProt Q9NSD7); cAMP, agonist).
For `CNC(C)CCc1ccccc1Cl` (racemic), the EC50 was 1280 nM (DRD3; GTPγS binding, agonist, radiometric; cell membranes).
For `Nc1ccn(C2CCC(OC(C(=O)O)P(=O)(O)O)C2)c(=O)n1` (racemic), the EC50 was 1400 ± 490 nM (Gag-Pol polyprotein, reverse transcriptase (gag-pol, Human immunodeficiency virus type 1 group M subtype B, UniProt P04585); post-translocation trapping, Fe2+ footprinting; 50% complexes post-translocated).
`O=C(O)COc1ccc(Cl)cc1` gave an EC50 of 800000 ± 176000 nM (PIN8 (Arabidopsis thaliana, UniProt Q9LFP6); transport current, substrate, SSM electrophysiology; proteoliposomes).
For `CC(C)C[C@@H]1NC(=O)[C@H](Cc2ccc(O)cc2)NC(=O)[C@H](CO)NC(=O)[C@H](C)NC(=O)[C@@H](NC(=O)[C@@H]2CCCN2C(=O)[C@H](CC(N)=O)NC(=O)[C@H](Cc2ccc(O)cc2)NC(=O)[C@H](CCCCN)NC(=O)[C@H](C)NC(=O)[C@H](C)NC(=O)[C@@H](N)CC(N)=O)CSC1=O`, the EC50 was 71.8 nM (Accessory gene regulator protein C).
`CCCCCn1c2ccccc2c2cc(C(=O)c3ccncc3)ccc21` has an EC50 of 1660 nM (CNR1 (Homo sapiens, UniProt P21554); GTPγS binding, agonist, radiometric; cell membranes).
With `CC[C@H](C)[C@H](NC(=O)[C@H](Cc1ccccc1)NC(=O)[C@H](C)NC(=O)[C@H](C)NC(=O)[C@H](Cc1ccccc1)NC(=O)[C@H](Cc1ccccc1)NC(=O)[C@H](C)NC(=O)[C@H](C)NC(=O)[C@H](CC(C)C)NC(=O)[C@H](CCCNC(=N)N)NC(=O)[C@H](CCSC)NC(=O)[C@@H](N)CCC(=O)O)C(=O)N[C@@H](C)C(=O)N[C@@H](C)C(=O)N[C@@H](CCCNC(=N)N)C(=O)N[C@@H](CCCCN)C(=O)N[C@@H](CCCCN)C(=O)O` the EC50 was over 1000 nM (histidine kinase ComD; Streptococcus pneumoniae).
For `CC[C@H](C)[C@H](NC(=O)[C@H](Cc1ccccc1)NC(=O)[C@H](CCC(=O)O)NC(=O)[C@H](CCCCN)NC(=O)[C@H](C)NC(=O)[C@H](C)NC(=O)[C@H](CCC(N)=O)NC(=O)CNC(=O)[C@H](CCC(=O)O)NC(=O)[C@H](CC(C)C)NC(=O)[C@H](Cc1ccc(O)cc1)NC(=O)[C@H](CO)NC(=O)[C@H](CO)NC(=O)[C@@H](NC(=O)[C@H](CC(=O)O)NC(=O)[C@H](CO)NC(=O)[C@@H](NC(=O)[C@H](Cc1ccccc1)NC(=O)[C@@H](NC(=O)CNC(=O)N(CCC(=O)O)NC(=O)[C@H](C)NC(=O)N(N)Cc1c[nH]cn1)[C@@H](C)O)[C@@H](C)O)C(C)C)C(=O)N[C@@H](C)C(=O)N[C@@H](Cc1c[nH]c2ccccc12)C(=O)N[C@@H](CC(C)C)C(=O)N[C@H](C(=O)N[C@@H](CCCNC(=N)N)C(=O)NCC(=O)N[C@@H](CCCNC(=N)N)C(=O)NCC(=O)O)C(C)C`, the EC50 was over 10 nM (GLP1R; cAMP reporter gene, agonist, CRE-luciferase; BHK cells expressing receptor).
The EC50 of `Cc1cc(O)cc(C)c1CC(N)C(=O)NC1CCNc2c(CN3CCCCC3)cc(Cc3ccccc3)cc21` (stereo not shown) is reported as 27 nM (Oprd1 (Rattus norvegicus, UniProt P33533); GTPγS binding, agonist, radiometric; cell membranes).
`C[C@H](N)CCc1ccccc1Cl` has an EC50 of 109 nM (DRD3; phosphorylation in cells, agonist, western blot).
With `CC[C@H](C)[C@H](NC(=O)[C@H](CC(N)=O)NC(=O)[C@H](CC(N)=O)NC(=O)[C@H](CCCNC(=N)N)NC(=O)[C@H](CC(N)=O)NC(=O)[C@H](CCCNC(=N)N)NC(=O)[C@H](CCCCN)NC(=O)[C@@H](NC(=O)[C@H](CC(N)=O)NC(=O)[C@H](CCSC)NC(=O)[C@H](CC(C)C)NC(=O)[C@H](Cc1c[nH]c2ccccc12)NC(=O)[C@H](CS)NC(=O)[C@@H](NC(=O)[C@H](Cc1ccccc1)NC(=O)[C@H](CC(=O)O)NC(=O)[C@H](CCC(N)=O)NC(=O)[C@H](C)NC(=O)[C@H](CCCNC(=N)N)NC(=O)[C@H](CS)NC(=O)[C@H](CO)NC(=O)[C@H](CC(=O)O)NC(=O)[C@H](CC(C)C)NC(=O)[C@H](Cc1ccc(O)cc1)NC(=O)[C@H](CCCCN)NC(=O)[C@H](CO)NC(=O)[C@H](Cc1ccc(O)cc1)NC(=O)[C@H](CC(=O)O)NC(=O)[C@H](CO)NC(=O)[C@@H](NC(=O)[C@H](Cc1ccccc1)NC(=O)[C@@H](NC(=O)CNC(=O)[C@H](CCC(N)=O)NC(=O)[C@@H](CO)NC(=O)[C@@H](N)Cc1c[nH]cn1)[C@@H](C)O)[C@@H](C)O)C(C)C)[C@@H](C)O)C(=O)N[C@@H](C)C(N)=O` the EC50 was about 500 nM (GLP1R; reporter gene, agonist, luciferase).
For `CC[C@H](C)[C@H](NC(=O)[C@@H](N)CCC(=O)O)C(=O)N[C@@H](CCCNC(=N)N)C(=O)N[C@@H](CCC(N)=O)C(=O)N[C@H](C(=O)N[C@@H](Cc1c[nH]cn1)C(=O)N[C@@H](Cc1ccccc1)C(=O)N[C@@H](Cc1ccccc1)C(=O)N[C@@H](Cc1ccccc1)C(=O)N[C@@H](Cc1ccccc1)C(=O)N[C@@H](Cc1ccccc1)C(=O)N[C@@H](Cc1ccccc1)C(=O)N[C@@H](Cc1ccccc1)C(=O)N[C@@H](CCCCN)C(=O)N[C@@H](CCCNC(=N)N)C(=O)N[C@@H](CCCNC(=N)N)C(=O)O)[C@@H](C)O`, the EC50 was over 10000 nM (histidine kinase ComD; reporter gene, agonist; Streptococcus pneumoniae, TIGR4 comX::lacZ; 30 min, pH 7.3, 37 °C).
`CC(C)C[C@@H]1NC(=O)[C@H](Cc2ccc(O)cc2)NC(=O)[C@H](CO)NC(=O)[C@H](C)NC(=O)[C@@H](NC(=O)[C@@H](NC(=O)[C@H](CC(N)=O)NC(=O)[C@H](Cc2ccc(O)cc2)NC(=O)[C@@H](N)CCCCN)C(C)C)CSC1=O` gave an EC50 of over 2000 nM (Accessory gene regulator protein C).
The EC50 of `Nc1ncnc2c1ncn2C1OC(COP(=O)(O)OP(=O)(O)OCC2OC(O)C(O)C2O)C(O)C1O` (stereo not shown) is reported as 14000 ± 1000 nM (TRPM2 (Nematostella vectensis, UniProt A7T1N0, T179A); channel activation, agonist, inside-out patch clamp; T179A, 2.5 µM PIP2, added: 125 µM Ca2+).

Repeated from above:
For `CNC(C)CCc1ccccc1Cl` (racemic), the EC50 was 1280 nM (DRD3; GTPγS binding, agonist, radiometric; cell membranes).
For `Nc1ccn(C2CCC(OC(C(=O)O)P(=O)(O)O)C2)c(=O)n1` (racemic), the EC50 was 1400 ± 490 nM (Gag-Pol polyprotein, reverse transcriptase (gag-pol, Human immunodeficiency virus type 1 group M subtype B, UniProt P04585); post-translocation trapping, Fe2+ footprinting; 50% complexes post-translocated).
`O=C(O)COc1ccc(Cl)cc1` gave an EC50 of 800000 ± 176000 nM (PIN8 (Arabidopsis thaliana, UniProt Q9LFP6); transport current, substrate, SSM electrophysiology; proteoliposomes).
